# Results gathered from unrelated publications.
# Protocols differ between the studies behind these lines. “And” joins repeats or separate records; there may be more than shown. ± marks the error that the study gave. Non-standard residues stand in square brackets, D forms with d. Square brackets hold non-standard residues; d marks the D form. Ends that are not written are not given here. No end group written: not given here.
# RB1 F897A/L901A/R908A: RB1 F897A/L901A/R908A (Homo sapiens, UniProt P06400)
# UniProt P06400, sequence (whole entry, unmodified, looked up): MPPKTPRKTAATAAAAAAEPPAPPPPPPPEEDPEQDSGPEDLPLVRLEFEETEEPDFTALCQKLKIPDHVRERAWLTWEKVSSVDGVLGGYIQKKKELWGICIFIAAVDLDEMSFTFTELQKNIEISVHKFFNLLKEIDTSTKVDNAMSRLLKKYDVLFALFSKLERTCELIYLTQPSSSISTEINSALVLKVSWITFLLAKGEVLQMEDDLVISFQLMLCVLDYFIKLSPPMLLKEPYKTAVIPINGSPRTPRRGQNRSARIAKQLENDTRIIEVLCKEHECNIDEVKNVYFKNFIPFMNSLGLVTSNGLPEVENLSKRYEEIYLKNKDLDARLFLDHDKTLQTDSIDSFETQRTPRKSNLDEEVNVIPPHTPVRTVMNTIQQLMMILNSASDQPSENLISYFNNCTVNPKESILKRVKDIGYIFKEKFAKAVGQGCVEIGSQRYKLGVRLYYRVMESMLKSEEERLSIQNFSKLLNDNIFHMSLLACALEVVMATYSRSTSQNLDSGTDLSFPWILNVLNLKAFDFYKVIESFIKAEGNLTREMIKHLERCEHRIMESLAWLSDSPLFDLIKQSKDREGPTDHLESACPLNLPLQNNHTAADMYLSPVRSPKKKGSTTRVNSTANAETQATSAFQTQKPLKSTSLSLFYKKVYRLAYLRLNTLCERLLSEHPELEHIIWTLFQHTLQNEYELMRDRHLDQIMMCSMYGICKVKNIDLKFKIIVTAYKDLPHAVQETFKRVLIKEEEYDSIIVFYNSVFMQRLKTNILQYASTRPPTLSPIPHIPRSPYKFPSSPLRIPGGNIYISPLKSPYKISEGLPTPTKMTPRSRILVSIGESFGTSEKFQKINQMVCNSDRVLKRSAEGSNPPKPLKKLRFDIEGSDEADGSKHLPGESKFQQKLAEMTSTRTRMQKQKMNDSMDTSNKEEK
# B1: Mesd (Mus musculus, UniProt Q9ERE7); chain ADTPGEATPPPRKKKDIRDYNDADMARLLEQWEKDDDIEEGDLPEHKRPSAPIDFSKLDPGKPESILKMTKKGKTLMMFVTVSGNPTEKETEEITSLWQGSLFNANYDVQRFIVGSDRAIFMLRDGSYAWEIKDFLVSQDRCAEVTLEGQMYPGKGGGSKEKNKTKPEKAKKKEGDPKPRASKEDNRAGSRREDL
# B2: RAB8A GTP-bound Q67L (UniProt P61006); sequence looked up; chain MAKTYDYLFKLLLIGDSGVGKTCVLFRFSEDAFNSTFISTIGIDFKIRTIELDGKRIKLQIWDTAGLERFRTITTAYYRGAMGIMLVYDITNEKSFDNIRNWIRNIEEHASADVEKMILGNKCDVNDKRQVSKERGEKLALDYGIKFMETSAKANINVENAFFTLARDIKAKMDKKLEGNSPQGSNQGVKITPDQQKRSSFFRCVLL
# B3: TXN2 mature (Homo sapiens, UniProt Q99757); sequence looked up; chain TTFNIQDGPDFQDRVVNSETPVVVDFHAQWCGPCKILGPRLEKMVAKQHGKVVMAKVDIDDHTDLAIEYEVSAVPTVLAMKNGDVVDKFVGIKDEDQLEAFLKKLIG
# B4: DNA polymerase beta 339-575 (Thermus thermophilus, UniProt Q5SJ64); sequence looked up; chain GDLQVHSTYSDGQNTLEELWEAAKTMGYRYLAVTDHSPAVRVAGGPSPEEALKRVGEIRRFNETHGPPYLLAGAEVDIHPDGTLDYPDWVLRELDLVLVSVHSRFNLPKADQTKRLLKALENPFVHVLAHPTARLLGRRAPIEADWEAVFQKAKEKGVAVEIDGYYDRMDLPDDLARMAYGMGLWISLSTDAHQTDHLRFMELAVGTAQRAWIGPERVLNTLDYEDLLSWLKARRGV
# B5: Spy (Escherichia coli, UniProt P77754); chain ADTTTAAPADAKPMMHHKGKFGPHQDMMFKDLNLTDAQKQQIREIMKGQRDQMKRPPLEERRAMHDIIASDTFDKVKAEAQIAKMEEQRKANMLAHMETQNKIYNILTPEQKKQFNANFEKRLTERPAAKGKMPATAE
# B6: Por (Rattus norvegicus, UniProt P00388); chain MGDSHEDTSATMPEAVAEEVSLFSTTDMVLFSLIVGVLTYWFIFRKKKEEIPEFSKIQTTAPPVKESSFVEKMKKTGRNIIVFYGSQTGTAEEFANRLSKDAHRYGMRGMSADPEEYDLADLSSLPEIDKSLVVFCMATYGEGDPTDNAQDFYDWLQETDVDLTGVKFAVFGLGNKTYEHFNAMGKYVDQRLEQLGAQRIFELGLGDDDGNLEEDFITWREQFWPAVCEFFGVEATGEESSIRQYELVVHEDMDVAKVYTGEMGRLKSYENQKPPFDAKNPFLAAVTANRKLNQGTERHLMHLELDISDSKIRYESGDHVAVYPANDSALVNQIGEILGADLDVIMSLNNLDEESNKKHPFPCPTTYRTALTYYLDITNPPRTNVLYELAQYASEPSEQEHLHKMASSSGEGKELYLSWVVEARRHILAILQDYPSLRPPIDHLCELLPRLQARYYSIASSSKVHPNSVHICAVAVEYEAKSGRVNKGVATSWLRAKEPAGENGGRALVPMFVRKSQFRLPFKSTTPVIMVGPGTGIAPFMGFIQERAWLREQGKEVGETLLYYGCRRSDEDYLYREELARFHKDGALTQLNVAFSREQAHKVYVQHLLKRDREHLWKLIHEGGAHIYVCGDARNMAKDVQNTFYDIVAEFGPMEHTQAVDYVKKLMTKGRYSLDVWS
# B7: TIF4631 572-853 K590R (Saccharomyces cerevisiae, UniProt P39935); sequence looked up; chain LVPSANRWVPKFKSKKTERKLAPDGKTELLDKDEVERKMKSLLNKLTLEMFDAISSEILAIANISVWETNGETLKAVIEQIFLKACDEPHWSSMYAQLCGKVVKELNPDITDETNEGKTGPKLVLHYLVARCHAEFDKGWTDKLPTNEDGTPLEPEMMSEEYYAAASAKRRGLGLVRFIGFLYRLNLLTGKMMFECFRRLMKDLTDSPSEETLESVVELLNTVGEQFETDSFRTGQATLEGSQLLDSLFGILDNIIQTAKISSRIKFKLIDIKELRHDKNWN
# B8: PPARG AF-1 1-136 (Homo sapiens, UniProt P37231-1); pS112, pT75; chain MGETLGDSPIDPESDSFTDTLSANISQEMTMVDTEMPFWPTNFGISSVDLSVMEDHSHSFDIKPFTTVDFSSISTPHYEDIPFTRTDPVVADYKYDLKLQEYQSAIKVEPASPPYYSEKTQLYNKPHEEPSNSLMA
# UniProt P14784, sequence (whole entry, looked up): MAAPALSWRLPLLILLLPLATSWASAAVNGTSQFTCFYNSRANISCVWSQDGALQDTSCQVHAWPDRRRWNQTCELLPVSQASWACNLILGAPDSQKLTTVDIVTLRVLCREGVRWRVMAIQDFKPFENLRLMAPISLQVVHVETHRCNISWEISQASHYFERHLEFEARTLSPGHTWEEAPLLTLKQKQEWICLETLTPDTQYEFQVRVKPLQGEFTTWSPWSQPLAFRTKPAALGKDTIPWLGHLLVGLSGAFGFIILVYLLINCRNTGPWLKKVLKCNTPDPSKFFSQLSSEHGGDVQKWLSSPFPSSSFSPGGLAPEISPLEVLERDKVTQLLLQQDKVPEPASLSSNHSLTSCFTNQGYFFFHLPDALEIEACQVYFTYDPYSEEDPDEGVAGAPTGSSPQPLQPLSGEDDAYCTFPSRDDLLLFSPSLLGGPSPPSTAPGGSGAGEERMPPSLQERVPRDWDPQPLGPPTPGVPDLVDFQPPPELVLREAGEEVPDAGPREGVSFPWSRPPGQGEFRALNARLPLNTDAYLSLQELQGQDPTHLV
# UniProt P09038, sequence (whole entry, looked up): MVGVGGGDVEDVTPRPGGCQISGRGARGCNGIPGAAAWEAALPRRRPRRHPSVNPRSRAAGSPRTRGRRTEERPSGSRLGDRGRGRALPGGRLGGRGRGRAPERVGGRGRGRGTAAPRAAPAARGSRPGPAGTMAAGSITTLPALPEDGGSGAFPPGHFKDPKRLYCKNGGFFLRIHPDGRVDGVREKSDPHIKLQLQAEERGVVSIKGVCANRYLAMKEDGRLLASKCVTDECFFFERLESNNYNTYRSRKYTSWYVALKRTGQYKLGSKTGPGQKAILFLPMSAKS
# UniProt Q99104, sequence (whole entry, looked up): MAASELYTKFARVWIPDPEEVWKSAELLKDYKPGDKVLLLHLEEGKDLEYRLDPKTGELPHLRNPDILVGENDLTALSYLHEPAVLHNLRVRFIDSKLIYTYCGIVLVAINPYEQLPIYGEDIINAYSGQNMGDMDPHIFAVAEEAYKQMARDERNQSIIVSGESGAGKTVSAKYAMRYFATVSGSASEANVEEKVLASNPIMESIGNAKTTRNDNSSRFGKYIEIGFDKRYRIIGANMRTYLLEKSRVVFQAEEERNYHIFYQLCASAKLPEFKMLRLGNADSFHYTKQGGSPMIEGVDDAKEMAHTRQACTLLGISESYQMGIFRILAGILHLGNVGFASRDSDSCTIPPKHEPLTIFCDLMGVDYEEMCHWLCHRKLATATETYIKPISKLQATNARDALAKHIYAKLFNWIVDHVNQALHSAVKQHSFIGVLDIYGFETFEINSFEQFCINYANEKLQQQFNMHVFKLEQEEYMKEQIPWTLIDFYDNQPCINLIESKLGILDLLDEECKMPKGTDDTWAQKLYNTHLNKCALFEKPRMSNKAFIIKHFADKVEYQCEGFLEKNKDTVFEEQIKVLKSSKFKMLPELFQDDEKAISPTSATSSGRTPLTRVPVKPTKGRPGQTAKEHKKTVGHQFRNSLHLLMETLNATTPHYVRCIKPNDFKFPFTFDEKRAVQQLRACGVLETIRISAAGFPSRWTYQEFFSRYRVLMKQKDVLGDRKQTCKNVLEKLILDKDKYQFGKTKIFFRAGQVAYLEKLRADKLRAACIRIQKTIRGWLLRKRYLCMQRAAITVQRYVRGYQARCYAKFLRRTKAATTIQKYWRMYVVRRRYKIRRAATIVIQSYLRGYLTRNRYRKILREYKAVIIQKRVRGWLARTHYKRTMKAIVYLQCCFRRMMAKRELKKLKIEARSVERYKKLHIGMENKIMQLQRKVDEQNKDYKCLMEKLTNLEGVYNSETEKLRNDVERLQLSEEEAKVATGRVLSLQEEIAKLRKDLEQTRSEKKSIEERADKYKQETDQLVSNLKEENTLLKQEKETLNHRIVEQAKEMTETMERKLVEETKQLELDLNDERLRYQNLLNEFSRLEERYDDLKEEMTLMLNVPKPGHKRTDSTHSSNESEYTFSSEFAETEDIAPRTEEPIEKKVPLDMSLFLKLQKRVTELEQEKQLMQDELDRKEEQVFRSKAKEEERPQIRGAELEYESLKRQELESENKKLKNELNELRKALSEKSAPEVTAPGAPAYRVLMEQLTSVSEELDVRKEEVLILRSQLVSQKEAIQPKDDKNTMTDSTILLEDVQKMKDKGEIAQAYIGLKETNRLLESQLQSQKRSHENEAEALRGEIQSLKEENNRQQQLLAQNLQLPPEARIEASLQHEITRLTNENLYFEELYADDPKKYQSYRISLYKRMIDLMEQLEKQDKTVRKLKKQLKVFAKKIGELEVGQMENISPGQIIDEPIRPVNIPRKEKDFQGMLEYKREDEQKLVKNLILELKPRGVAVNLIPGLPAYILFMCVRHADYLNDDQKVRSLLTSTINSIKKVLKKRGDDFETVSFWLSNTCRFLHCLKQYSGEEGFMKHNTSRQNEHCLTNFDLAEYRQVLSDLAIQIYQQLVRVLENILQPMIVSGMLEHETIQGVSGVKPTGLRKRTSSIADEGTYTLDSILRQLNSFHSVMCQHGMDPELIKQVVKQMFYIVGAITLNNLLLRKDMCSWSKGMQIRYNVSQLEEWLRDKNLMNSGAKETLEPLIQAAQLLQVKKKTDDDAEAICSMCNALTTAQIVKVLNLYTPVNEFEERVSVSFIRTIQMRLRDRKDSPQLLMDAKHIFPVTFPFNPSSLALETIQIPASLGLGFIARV
# UniProt P10081, sequence (whole entry, unmodified, looked up): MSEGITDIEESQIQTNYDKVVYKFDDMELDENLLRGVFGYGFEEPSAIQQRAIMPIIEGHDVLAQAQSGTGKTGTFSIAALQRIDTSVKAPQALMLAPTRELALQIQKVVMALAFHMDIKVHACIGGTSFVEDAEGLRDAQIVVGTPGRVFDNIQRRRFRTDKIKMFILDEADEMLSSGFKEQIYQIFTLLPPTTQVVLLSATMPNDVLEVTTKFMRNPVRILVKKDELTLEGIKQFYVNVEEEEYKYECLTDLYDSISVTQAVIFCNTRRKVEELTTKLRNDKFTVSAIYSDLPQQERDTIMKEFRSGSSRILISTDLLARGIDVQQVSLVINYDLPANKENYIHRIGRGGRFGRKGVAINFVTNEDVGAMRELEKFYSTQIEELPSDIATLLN
# UniProt Q61851, sequence (whole entry, looked up): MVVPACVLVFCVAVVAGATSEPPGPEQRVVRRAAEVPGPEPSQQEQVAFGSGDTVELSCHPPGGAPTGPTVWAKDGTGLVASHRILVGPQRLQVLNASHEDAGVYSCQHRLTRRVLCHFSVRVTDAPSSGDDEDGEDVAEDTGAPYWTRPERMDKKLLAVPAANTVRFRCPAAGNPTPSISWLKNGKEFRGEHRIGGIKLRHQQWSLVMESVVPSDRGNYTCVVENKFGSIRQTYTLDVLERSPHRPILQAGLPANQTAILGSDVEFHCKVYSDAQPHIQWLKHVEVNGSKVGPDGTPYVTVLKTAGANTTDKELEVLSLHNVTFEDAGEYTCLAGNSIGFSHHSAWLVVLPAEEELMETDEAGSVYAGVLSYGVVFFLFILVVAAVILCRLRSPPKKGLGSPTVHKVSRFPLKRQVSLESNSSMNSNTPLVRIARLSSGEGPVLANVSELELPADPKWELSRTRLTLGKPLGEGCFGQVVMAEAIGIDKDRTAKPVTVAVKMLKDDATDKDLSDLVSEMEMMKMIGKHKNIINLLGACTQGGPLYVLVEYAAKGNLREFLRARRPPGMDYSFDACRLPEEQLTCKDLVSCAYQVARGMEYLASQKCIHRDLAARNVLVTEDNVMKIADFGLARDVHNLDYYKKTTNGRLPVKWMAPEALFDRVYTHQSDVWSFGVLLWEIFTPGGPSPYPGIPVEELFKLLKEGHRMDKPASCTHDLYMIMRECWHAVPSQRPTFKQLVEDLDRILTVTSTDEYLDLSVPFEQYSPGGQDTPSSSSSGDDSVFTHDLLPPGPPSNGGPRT
# UniProt P15873, sequence (whole entry, unmodified, looked up): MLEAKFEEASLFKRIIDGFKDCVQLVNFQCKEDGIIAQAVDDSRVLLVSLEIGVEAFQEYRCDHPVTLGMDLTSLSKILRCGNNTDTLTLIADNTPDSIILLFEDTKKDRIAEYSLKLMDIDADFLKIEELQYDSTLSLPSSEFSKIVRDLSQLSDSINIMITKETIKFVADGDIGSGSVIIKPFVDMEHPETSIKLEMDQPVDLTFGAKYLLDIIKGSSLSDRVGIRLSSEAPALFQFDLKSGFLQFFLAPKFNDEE
Molecule,partner,assay,test system,conditions,scale,measurement,value
GCVRLHESCLGQQVPCCDPAATCYCTGRGDSPASCYCR (AgRP variant),"ITGAV/ITGB3 whole, on cells (Homo sapiens)","competition with labeled echistatin, radioligand binding","designed binder, U87MG","3 h, room temperature, with: 125I-echistatin 0.06 nM",,IC50,1400 nM
PapB (Paenibacillus polymyxa),"PapA-MBP fusion precursor peptide, leader plus core (Paenibacillus polymyxa)",MALDI-TOF-MS,,"in E. coli, six thioether linkages",,mass change,-12 Da
B1 (Mesd),"LRP6 (Homo sapiens, UniProt O75581)",Matrigel invasion assay,"MDA-MB-231, BT549","2 µM, 4 µM",,invasion inhibition,60 % inhibition
TIMP2 N-terminal domain S4E/N38Q/V71N/H97R/T99S,"MMP1 100-269 (Homo sapiens, UniProt P03956)","fluorogenic substrate cleavage, inhibitor, enzyme inhibition assay",,apparent,,Ki,0.31 nM
TNYLFSPNGPIARAW (TNYL-RAW),"EPHB4 16-539 (Homo sapiens, UniProt P54760)",SPR,peptide,,,koff,0.0013 s⁻¹
RFC1/RFC2/RFC3/RFC4/RFC5 Rfc1 284-end (Saccharomyces cerevisiae),"POL30 1-258 C22S/C62S/C81S/S43C, MDCC on Cys43 (Saccharomyces cerevisiae, UniProt P15873)",stopped-flow fluorescence,,"200 nM RFC, 20 °C, with: ATP 0.5 mM",,kobs,36 s⁻¹
ACTC1 R312H,heavy meromyosin HMM (Oryctolagus cuniculus),in vitro motility assay,,"model fit, with: alpha-actinin",,frictional load,174 pN
ETDKE[pY][pY]TVKD (JAK1 1029-1039; pY1034/pY1035; pY = N[C@@H](Cc1ccc(OP(=O)(O)O)cc1)C(=O)O),"PTPN6 243-530 Q252R/C453S (Homo sapiens, UniProt P29350)",ITC,peptide,"pH 8.0, 25 °C, NaCl 100 mM",,molecule per partner,0.9
B2 (RAB8A GTP-bound Q67L),"Myo5a 1260-1853 (Mus musculus, UniProt Q99104)",pull-down,"CHO-IR, lysate",,"reference: wild-type Rab8A, higher = more binding",relative binding,2.5 fold
B3 (TXN2 mature),"MAP3K5 (Homo sapiens, UniProt Q99683)",co-IP,HLE B3,"without H2O2, in cells","reference: vector cells, lower = less Trx2 bound",Trx2/ASK1 ratio decrease,20%
KATGAA[pT]PKKSAKW (histone H1.4 residues 139-151 (Homo sapiens); pT145; pT = C[C@@H](OP(=O)(O)O)[C@H](N)C(=O)O),"PIN1 (Homo sapiens, UniProt Q13526)",EXSY NMR,peptide,"1 mM peptide, 25 °C",,exchange rate constant,5.5 s⁻¹
PHF1 fragment (Homo sapiens) (sequence not shown),"H3 fragment, K27me3",ITC,,,,ΔH,-5140 ± 469 cal/mol
"UBE2D3 (Homo sapiens, UniProt P61077)",MYCBP2 4378-4640 C4520K/F4394A (Homo sapiens),E2-E3 isopeptide formation,,single turnover,,reduction of isopeptide formation,30 % reduction
"BCL9 HD2 helix, N-acetyl, hydrocarbon staple (Homo sapiens)","CTNNB1 (Homo sapiens, UniProt P35222)","competition with complex, pull-down",,,,IC50,135 nM
"CCND2/CDK4 fusion, linker (Homo sapiens)",RB1 F897A/L901A/R908A,in vitro kinase assay,,,"reference: wild-type Rb, higher = greater difference",Rb phosphorylation,19 fold
IL2 N90R/V91R/T131R (Homo sapiens),"IL2RB (Homo sapiens, UniProt P14784)",flow cytometry,human PBMCs,,"reference: wildtype IL2, higher = greater reduction",pSTAT5+ CD8 T cells,100 fold
ACTN1 fragment (Homo sapiens),"CASP8 (Homo sapiens, UniProt Q14790)",two-hybrid,,,higher = stronger interaction,β-galactosidase activity,0.02 ± 0.02 Miller units
Crebbp fragment (Mus musculus),"AKT1 T308D/S473D (Homo sapiens, UniProt P31749)",pull-down,,,,percentage recovery,1.67 ± 0.67%
Xrcc1 fragment (Mus musculus),LIG3 BRCT domain 836-921 (Homo sapiens),circular dichroism,,heterodimer,,apparent Tm,56.2 °C
"ITGB1 whole (Gallus gallus, UniProt P07228)","laminin (Mus musculus, UniProt P19137)",neuron attachment,E14 CG neurons,with: JG22 50 µg/mL,"reference: poly-D-lysine, higher = more attachment",attachment,3%
cytochrome c550 mature (Starkeya novella),sorT mature (Sinorhizobium meliloti),steady-state kinetics,,"pH 8.0, with: cytochrome as electron acceptor",,sulfite dehydrogenase activity,0.6 U/mg
"CALM1 T26C, Alexa Fluor 568 at C26 (sequence not shown)",Camk2d T287A (Rattus norvegicus),FRET,,rapid Ca chelation,,dissociation time constant,569 ms
B4 (DNA polymerase beta 339-575),"DNA polymerase beta 1-379 (Thermus thermophilus, UniProt Q5SJ64)",SEC,,"pH 8.0, 37 °C, KCl 100 mM, with: dNTPs 10 µM","reference: without dNTPs, higher = more complex",fold change in peak absorbance,1.1 fold
KVAK[pS]PKKAKAW (H1-5 168-178 (Homo sapiens); pS172; pS = N[C@@H](COP(=O)(O)O)C(=O)O),"PIN1 51-163 (Homo sapiens, UniProt Q13526)",EXSY NMR,peptide,"1 mM peptide, 25 °C",,exchange rate constant,5.8 s⁻¹
"CCND2/CDK6 fusion, linker (Homo sapiens)",RB1 F897A/L901A/R908A,in vitro kinase assay,,,"reference: wild-type Rb, higher = greater difference",Rb phosphorylation,19 fold
B5 (Spy),Im7 L18A/L19A/L37A/H40W (Escherichia coli),stopped-flow fluorescence,,"pH 7.5, 22 °C, NaCl 25 to 300 mM, high-salt limit",,association rate constant,4.5e+06 M⁻¹ s⁻¹
B6 (Por),"CYP2B4 (Oryctolagus cuniculus, UniProt P00178)","first electron transfer, stopped-flow",nanodiscs,"25 °C, fast phase, anaerobic",,rate constant k1,2.5 s⁻¹
"Mybbp1a (Mus musculus, UniProt Q7TPV4)",histone H3 peptide fragment (Homo sapiens),pull-down,lysate,4 °C,"reference: acetylated and unmodified peptides, higher = more binding",relative binding,2 fold
B7 (TIF4631 572-853 K590R),"TIF1 E135C/G370C, Alexa488/Alexa546 labels (Saccharomyces cerevisiae, UniProt P10081)","conformation of molecule, smFRET",,,,binding,binds
"Ac-NATEEM-NH2 (PLCB3 residues 585-590, N-acetyl, C-amide (Homo sapiens); N-acetyl, C-amide)","PLCB3 (Homo sapiens, UniProt Q01970)",ACh-induced Ca2+ level,"peptide, HEK293","100 µM, 1 h","reference: vehicle, higher = stronger reduction",reduction,32%
"DLAT L2 domain, lipoylated",Pdk2 (Rattus norvegicus),ITC,,"30 °C, single-site, no nucleotide",,ΔH,-14500 cal/mol
"FGF2 (Homo sapiens, UniProt P09038)","FGFR3 isoform IIIc (unknown, UniProt Q61851)","cell proliferation, MTT",BaF3-FGFR3c,with: heparin,,half-maximal concentration,2.5 nM
WDR48 fragment (Homo sapiens) (sequence not shown),"USP12/ubiquitin, covalent Ub-PRG warhead (Homo sapiens)",SEC-MALS,,pH 7.5,,molecule per partner,2 UAF1 per USP12
B8 (PPARG AF-1 1-136),"PIN1 (Homo sapiens, UniProt Q13526)",NMR,,,,koff,1430 s⁻¹ and 659 s⁻¹
SKA1/SKA2 (Homo sapiens) (sequence not shown),TUBA1B/TUBB2B taxol-stabilized microtubules,"residence times, single-molecule TIRF microscopy",,30 °C,,koff,4.9 ± 0.4 s⁻¹
"IDEYFSEQPLKNLAASTSEEQIEKCFIIENISTIA (IFNAR1 478-512 L491A/L492A (Homo sapiens, UniProt P17181))","TYK2 23-583 (Homo sapiens, UniProt P29597)",differential scanning fluorimetry,peptide,,,apparent Tm reduction,> 5 °C

# Some of these lines once more:
Molecule,partner,assay,test system,conditions,scale,measurement,value
KVAK[pS]PKKAKAW (H1-5 168-178 (Homo sapiens); pS172; pS = N[C@@H](COP(=O)(O)O)C(=O)O),"PIN1 51-163 (Homo sapiens, UniProt Q13526)",EXSY NMR,peptide,"1 mM peptide, 25 °C",,exchange rate constant,5.8 s⁻¹
"CCND2/CDK6 fusion, linker (Homo sapiens)",RB1 F897A/L901A/R908A,in vitro kinase assay,,,"reference: wild-type Rb, higher = greater difference",Rb phosphorylation,19 fold
B5 (Spy),Im7 L18A/L19A/L37A/H40W (Escherichia coli),stopped-flow fluorescence,,"pH 7.5, 22 °C, NaCl 25 to 300 mM, high-salt limit",,association rate constant,4.5e+06 M⁻¹ s⁻¹
B6 (Por),"CYP2B4 (Oryctolagus cuniculus, UniProt P00178)","first electron transfer, stopped-flow",nanodiscs,"25 °C, fast phase, anaerobic",,rate constant k1,2.5 s⁻¹
"Mybbp1a (Mus musculus, UniProt Q7TPV4)",histone H3 peptide fragment (Homo sapiens),pull-down,lysate,4 °C,"reference: acetylated and unmodified peptides, higher = more binding",relative binding,2 fold
B7 (TIF4631 572-853 K590R),"TIF1 E135C/G370C, Alexa488/Alexa546 labels (Saccharomyces cerevisiae, UniProt P10081)","conformation of molecule, smFRET",,,,binding,binds
